Published values from different studies.
A part holds a random share of what one study measured. Substitutions count along the parent as printed.

Block 1
Target: UDP-N-acetylglucosamine--peptide N-acetylglucosaminyltransferase 110 kDa subunit (OGT, Homo sapiens, UniProt O15294)
UniProt O15294, sequence (whole entry, looked up): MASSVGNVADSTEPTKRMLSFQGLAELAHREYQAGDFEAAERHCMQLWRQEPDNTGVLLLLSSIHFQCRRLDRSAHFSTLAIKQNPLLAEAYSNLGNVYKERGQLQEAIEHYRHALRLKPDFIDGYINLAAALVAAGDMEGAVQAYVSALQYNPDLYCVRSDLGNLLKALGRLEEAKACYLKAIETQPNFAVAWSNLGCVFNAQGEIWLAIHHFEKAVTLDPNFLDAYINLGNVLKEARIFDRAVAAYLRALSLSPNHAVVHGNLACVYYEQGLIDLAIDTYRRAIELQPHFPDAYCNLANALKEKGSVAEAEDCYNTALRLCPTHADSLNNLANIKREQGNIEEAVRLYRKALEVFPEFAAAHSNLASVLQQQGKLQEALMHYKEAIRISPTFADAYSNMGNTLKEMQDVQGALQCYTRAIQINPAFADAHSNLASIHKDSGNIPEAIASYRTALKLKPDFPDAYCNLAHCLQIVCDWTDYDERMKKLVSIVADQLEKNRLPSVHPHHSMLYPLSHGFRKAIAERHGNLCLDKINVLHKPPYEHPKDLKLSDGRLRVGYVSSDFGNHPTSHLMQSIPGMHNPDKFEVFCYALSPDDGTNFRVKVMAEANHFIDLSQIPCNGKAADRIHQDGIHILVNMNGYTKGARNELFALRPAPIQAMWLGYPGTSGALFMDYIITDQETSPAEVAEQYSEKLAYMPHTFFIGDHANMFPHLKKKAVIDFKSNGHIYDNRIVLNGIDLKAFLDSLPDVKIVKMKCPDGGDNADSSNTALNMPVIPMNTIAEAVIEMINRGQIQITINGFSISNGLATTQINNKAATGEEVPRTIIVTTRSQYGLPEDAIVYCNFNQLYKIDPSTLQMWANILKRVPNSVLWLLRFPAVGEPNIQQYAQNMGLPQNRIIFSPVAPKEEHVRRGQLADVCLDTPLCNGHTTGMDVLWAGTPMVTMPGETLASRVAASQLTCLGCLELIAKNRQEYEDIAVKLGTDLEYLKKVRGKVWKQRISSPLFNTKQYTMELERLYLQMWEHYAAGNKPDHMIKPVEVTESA
Read-out: binding
Method: phage display NGS
Molecule type: peptide
Concentration: concentration not given
Baseline: input library
| Sequence | enrichment fold change |
| --- | --- |
| HNVEPMHHNHSARPY | 7.59 |
| HVTSPMQLTNWHFHA | 2.57 |
| WSIHHMPRHESKYTD | 7.3 |
| HTVDFRWEHRWHPHS | 3.37 |
| HERHHYVRYQNAGQD | 2.44 |
| EFFPPAYQLVVPYGD | 9.39 |
| HFASPYYTQWHGHWL | 4.35 |
| HGPYHVPRHVPYKYG | 9.97 |

Block 2
Target: tungstate, free oxyanion
Method: microfluidic competitive inhibition
Sample: in vitro, cell-free expressed
Concentration: not given
Notes: derived from inhibition constants, unchanged parent 2230 nM
Direction: lower = stronger binding
Parent: PafA, mature enzyme, eGFP fusion (Elizabethkingia meningoseptica, UniProt Q9KJX5); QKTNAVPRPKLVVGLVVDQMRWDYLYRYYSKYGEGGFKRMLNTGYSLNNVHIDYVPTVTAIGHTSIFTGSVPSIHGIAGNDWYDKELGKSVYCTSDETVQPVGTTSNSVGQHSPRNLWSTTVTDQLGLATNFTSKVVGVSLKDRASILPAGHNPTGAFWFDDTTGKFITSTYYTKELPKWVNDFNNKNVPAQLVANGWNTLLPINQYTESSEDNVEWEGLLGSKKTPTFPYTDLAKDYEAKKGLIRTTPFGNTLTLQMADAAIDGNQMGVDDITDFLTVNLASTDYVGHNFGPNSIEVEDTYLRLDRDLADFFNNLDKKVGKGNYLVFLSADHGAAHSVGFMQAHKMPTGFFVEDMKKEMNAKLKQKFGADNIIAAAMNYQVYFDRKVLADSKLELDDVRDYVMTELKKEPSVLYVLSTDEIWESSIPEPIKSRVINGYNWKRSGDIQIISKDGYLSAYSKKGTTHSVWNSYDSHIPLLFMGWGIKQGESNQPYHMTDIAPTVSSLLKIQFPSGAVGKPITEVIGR
| Substitution | oxyanion analog dissociation constant |
| --- | --- |
| T274V | 2.1 µM |
| E359V | 2.1 µM |
| N294G | 2.13 µM |
| A145G | 7.89 µM |
| Y45V | 2.34 µM |
| V298A | 2.37 µM |
| F229G | 554 nM |
| V16A | 2.35 µM |

Block 3
Target: CCNE1, cyclin fold, Cln2 fusion (human)
Method: yeast growth competition, sequencing
Sample: yeast
Notes: strong parent motif
Baseline: not given
Direction: higher = stronger binding
Parent: viral docking peptide; KGVKRKLFAEDSS; partner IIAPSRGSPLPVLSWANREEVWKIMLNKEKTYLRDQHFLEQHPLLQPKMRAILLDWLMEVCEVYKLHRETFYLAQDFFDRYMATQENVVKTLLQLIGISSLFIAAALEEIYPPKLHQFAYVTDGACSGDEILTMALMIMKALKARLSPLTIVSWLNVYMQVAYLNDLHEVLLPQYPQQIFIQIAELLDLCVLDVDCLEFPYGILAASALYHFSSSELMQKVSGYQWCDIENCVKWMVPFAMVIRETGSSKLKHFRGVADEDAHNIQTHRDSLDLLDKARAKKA
| Substitution | normalised enrichment score |
| --- | --- |
| E10R | 5.12 |
| F8K | 0.311 |
| K6A | 6.47 |
| K4G | 1.84 |
| G2P | 7.71 |
| K6H | 4.52 |
| S12P | 7.91 |
| K4E | 1.99 |

Other studies, line by line
| SMILES | target | read-out | mode | concentration | notes | quantity | value |
| --- | --- | --- | --- | --- | --- | --- | --- |
| O=c1c(O)cccc2cc(O)c(O)c(O)c12 | chymotrypsin | enzyme activity | inhibitor | 10 µM | with DTT | inhibition | 9.3% |

Excerpt of the above (block 3):
| Substitution | normalised enrichment score |
| --- | --- |
| K6A | 6.47 |
| K4G | 1.84 |
| G2P | 7.71 |
| K6H | 4.52 |
